Measured values pooled from the literature.
Protocols differ between the studies behind these lines. ± gives the spread as reported.
4'-phosphopantetheinyl transferase PptT: 4'-phosphopantetheinyl transferase PptT (Mycobacterium tuberculosis, UniProt O33336)
CHRM3: Muscarinic acetylcholine receptor M3 (CHRM3, Homo sapiens, UniProt P20309)
Slc6a4: Sodium-dependent serotonin transporter (Slc6a4, Rattus norvegicus, UniProt P31652)

For `COC(=O)/C=C/C(=O)N[C@@H]1CC[C@@]2(O)[C@H]3Cc4ccc(O)c5c4[C@@]2(CCN3CC2CC2)[C@H]1O5`, the Kd was 0.00998 ± 0.00364 µM (Oprm1 (Rattus norvegicus, UniProt P33535, K303E); reversible binding, radioligand saturation binding; N2a membranes; together with: [3H]compound).
`COc1cc(C)[nH]c(=O)c1CNC(=O)c1c(C)n([C@H](C)C2CCN(CC(F)(F)F)CC2)c2ccccc12` gave a Ki of 31 nM (Histone-lysine N-methyltransferase EZH1, in PRC2 complex (EZH1, Homo sapiens, UniProt Q92800); differential scanning fluorimetry; extrapolated from Tm, together with: activator peptide).
With `CCNC(=N)NC(=O)Nc1cccc2ccccc12` the IC50 was 68.2 µM (4'-phosphopantetheinyl transferase PptT; inhibitor).
`CCCCC(=O)N(Cc1ccc(-c2ccccc2-c2nnn[nH]2)cc1)[C@H](C(=O)O)C(C)C` has an IC50 of 10.7 µM (Succinyl-CoA:glutarate CoA-transferase (SUGCT, Homo sapiens, UniProt Q9HAC7); enzyme activity, inhibitor, fluorometric coupled; pH 7.4, 100 mM HEPES-KOH buffer).
For `CC(C)(C)c1cc(C(C)(C)CO)c(O)cc1NC(=O)c1c[nH]c2ccccc2c1=O`, the Ki was over 1830 nM (CHRM3).
Under “AST elevation incidence”, `COc1cc2c(Oc3ccc4[nH]c(C)cc4c3F)ccnc2cc1OCC1(N)CC1` is recorded as 0% (paediatric refractory sarcoma patients; 10 mg).
For `CCNc1c(Nc2c(CC)cccc2CC)c(=O)c1=O`, the IC50 was over 100 µM (4'-phosphopantetheinyl transferase PptT; inhibitor).
The Kd of `Nc1nc(O)c2ncn([C@@H]3O[C@H](COP(=O)(O)OP(=O)(O)C[P+]([O-])(O)O)[C@@H](O)[C@H]3O)c2n1` is reported as 47.1 µM (uncharacterized protein (Vibrio cholerae, UniProt A0A0X1KYD0)).
With `CCc1cccc(CC)c1NC(=O)NC(=N)N1CCCCC1` the IC50 was over 100 µM (4'-phosphopantetheinyl transferase PptT; inhibitor).
`Clc1cc(Cl)cc(N2CCNCC2)c1` gave an EC50 of over 20000 nM (CHRM3; ERK1/2 phosphorylation, agonist; CHO cells).
The EC50 of `CCCC(NC)C(=O)c1ccc2c(c1)OCO2` (racemic) is reported as 650 ± 200 nM (Slc6a4; substrate release, substrate; rat brain synaptosomes; together with: [3H]5-HT 5 nM).
`CN[C@@H](C)Cc1ccccc1` gave an EC50 of 640 ± 150 nM (SLC6A3 (Homo sapiens, UniProt Q01959); peak current, two-electrode voltage clamp; Xenopus oocytes expressing hDAT; 1 min, -60 mV).
For `Clc1cccc(N2CCNCC2)c1Cl`, the EC50 was over 20000 nM (CHRM3; ERK1/2 phosphorylation, agonist; CHO cells).
`CCNC(CC)C(=O)c1ccc2c(c1)OCO2` (stereo not drawn) has an EC50 of 1020 ± 260 nM (Slc6a4; rat).
With `CCNC(=N[N+](=O)[O-])NC(=O)Nc1c(CC)cccc1CC` the IC50 was over 100 µM (4'-phosphopantetheinyl transferase PptT; inhibitor).
With `CCCCCCCCCCCC(CC1OC(=O)C1C(C)C)OC(=O)C(CC(C)C)NC(=O)OCc1ccccc1` (stereo not drawn) the EC50 was 66000 ± 8000 nM (fbpC (Mycobacterium tuberculosis, UniProt P9WQN9); enzyme activity, inhibitor, 4-MUH hydrolysis fluorescence; pH 7.5, 4 mM trehalose, together with: 50 µM 4-methylumbelliferyl heptanoate).
With `CCNC(=N)NC(=O)Nc1ccc(Cl)cc1` the IC50 was over 100 µM (4'-phosphopantetheinyl transferase PptT; inhibitor).
With `CCCc1cc(O)c2c(c1)OC(C)(C)[C@@H]1CCC(C)=C[C@@H]21` the EC50 was over 100000 nM (TRPV3 (Homo sapiens, UniProt Q8NET8, L563F); calcium uptake, agonist; HEK293S; mutant L563F, site 1).

Some of these lines once more:
For `CC(C)(C)c1cc(C(C)(C)CO)c(O)cc1NC(=O)c1c[nH]c2ccccc2c1=O`, the Ki was over 1830 nM (CHRM3).
